Published values from different studies.
Each numbered part is a random draw from the data of one study; scales do not carry over between parts.

Study 1 — target: Sox, HMG box (Pigoraptor chileana); technique: Spec-seq; form: double-stranded DNA, one strand shown; sample: in vitro; concentration: not given; setting: whole probe, mean of replicates; reference: not given; reading: lower = stronger binding; constant ends, left off below: GAGTCGTCTCGTCAGCAC … CCGTAGAGCACTCAGGTC
Residues (chain): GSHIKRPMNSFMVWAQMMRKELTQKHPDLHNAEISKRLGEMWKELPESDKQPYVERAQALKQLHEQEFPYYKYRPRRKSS
`TGTGGTT`: “relative binding energy” 0.0845 ln ratio.
`CATCGTA`: “relative binding energy” 0.457 ln ratio.
`TTTTGTT`: “relative binding energy” -2.54 ln ratio.
For `CATAGTT`, “relative binding energy” read -0.76 ln ratio.
For `TATTGTT`, “relative binding energy” read -3.28 ln ratio.
`CATCCCC` — result for “relative binding energy”: 1.03 ln ratio.
For `GGGCGTT`, “relative binding energy” read 1.7 ln ratio.

Study 2 — technique: RNA Bind-n-Seq; form: RNA; sample: in vitro; concentration: 100 nM; reference: input RNA pool; reading: higher = stronger binding
Target: RING finger protein unkempt homolog, zinc fingers 1-6, SBP tag (UNK, Homo sapiens, UniProt Q9C0B0, residues 30-357)
UniProt Q9C0B0, sequence (30-357, looked up): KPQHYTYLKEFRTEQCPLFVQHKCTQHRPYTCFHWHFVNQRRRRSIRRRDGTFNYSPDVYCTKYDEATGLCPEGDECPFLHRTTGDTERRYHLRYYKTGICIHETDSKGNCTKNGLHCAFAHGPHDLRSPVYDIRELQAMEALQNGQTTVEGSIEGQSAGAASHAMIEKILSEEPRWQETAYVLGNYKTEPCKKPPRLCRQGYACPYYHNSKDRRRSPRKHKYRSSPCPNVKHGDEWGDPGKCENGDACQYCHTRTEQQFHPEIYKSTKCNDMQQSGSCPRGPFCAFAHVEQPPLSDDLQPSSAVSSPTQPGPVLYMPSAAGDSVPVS
Setting: RNA with constant flanks, vertebrate orthologous sites, ends assumed
Constant ends, left off below: GGGAGUUCUACAGUCCGACGAUC … CAACAGAGGAUUGAGCAUCA
`UUCAUUAUCUGAGCCGAGUGGAAGUGACAGAGUUUGAAGACAUCAAGUCGGGUUACAGAAUAGAUUUUUACUGUUGUUUGAGAUGUCUGAGAAGAGCUUUUUUUUAUCUUUGAUACUUAC` gave a bound/input enrichment of 0.523 ratio.
`GCCCACCCAGCUCACACCAGCAGCUUGCUCUCACAGUGCACAGCUUACAAAGGAACAGUCUCGUGGGAUUUUUAUUUUAAUUUAAAACCUGCUUUUCCCAAAACUGAUCAAGAAGCUACG` gave a bound/input enrichment of 0.492 ratio.
`GGCUUAUUGGUAGAGGCAGAAGGAUCAGAAGUUCAAGAUCAUCCUCAGCUACAUGAGACUAAAAUGUGGGGGCAUAAUGAAGCUCAAAAAGGUCAAGGGAAUUGAGGUACUCUGUAAAUU` gave a bound/input enrichment of 0.482 ratio.
`CAAAUUCAUCUCUUAUAUGUCCAAAAAUGACUGAAUUUUUUAAAAGUUGAUAGUUUUAAUUAGCUCUGCCCUCUUGAAGAAGUAUUUUAAUUCACCGCAAACAGAUAUCUGUCUGAUUUA` gave a bound/input enrichment of 0.756 ratio.
`AUAAUCACUCUAAUUGUAAUCUGAAUAAAGUGUAACAUUGUGUAGCCUUUUUGUAUAAAAUAGACAAAUAGAAAUGGUCUAAUUAGUUUCCUUUUUAAUAUGCUUAAAAUAAGCAGGUGG` has a bound/input enrichment of 2.39 ratio.

Study 3 — technique: Sort-seq; refers to: YFP reporter; sample: E. coli; setting: PhoQ-PhoP variant library; together with: 10 µM Mg2+; reference: high Mg2+ state; reading: higher = stronger signaling
Substance: PhoQ, residues 284 288 289 292 302 303 TTCLQL
It gave 3.14 for fold induction (PhoP, residues 12 14 15 18 19 LHTVL (Escherichia coli, UniProt P23836)).
PhoP, residues 12 14 15 18 19 NQCAL (Escherichia coli, UniProt P23836) — fold induction: 8.29.
PhoP, residues 12 14 15 18 19 TQAML (Escherichia coli, UniProt P23836) — fold induction: 4.97.

Study 4 — technique: protein-binding microarray; form: double-stranded DNA, one strand shown; sample: in vitro; concentration: 250 nM; setting: 60-bp whole probe; together with: salmon DNA 0.4 mg/ml; reference: random background probes; reading: higher = stronger binding; constant ends, left off below: GCCTAGCAC … GTCTTGATTCGCTTGACGCTGCTG
Target: Interferon regulatory factor 5, full length, phosphomimetic (IRF5, Homo sapiens, UniProt Q13568-2, residues 1-514, K96S/S451D/S453D/S456D/S462D)
The log fluorescence of `GTAGATCTCAGTCTCGATTAGTGCTAG` is reported as 0.561 z-score.
`GACGATATCGGGTTTCGAAACGTGCTA` has a log fluorescence of 5.09 z-score.
`CTAGGTTTCCTTTCCCTTTAGTGCTAG` has a log fluorescence of 1.68 z-score.
The log fluorescence of `GACGACATCAGACTGGAGACGTGCTAG` is reported as -0.367 z-score.
The log fluorescence of `TTAGATTCCAGTTTCGATTTGTGCTAG` is reported as 9.41 z-score.
For `TTAGGACTGGGTAACGGTTAGTGCTAG`, the log fluorescence was -0.295 z-score.
The log fluorescence of `ACAGCTCTGCGGTTCAGATAGTGCTAG` is reported as -0.252 z-score.
